Assay results from different studies.
Lines come from different studies, so protocols differ. ± gives the spread as reported.
Cell line: Jurkat

Structure (SMILES)	assay	setting	IC50
CC(C)c1ccc(N(C)c2ccc3c(c2)OCC[C@H]3CNc2cnccc2C(=O)O)cc1	cell growth or viability, MTS	7 days	0.0027 µM
C=CC(=O)N1CCCC(n2c(=O)c3ncccc3n(Cc3ccc(Oc4ccccc4)cc3)c2=O)C1 (stereo not drawn)	cell growth or viability, MTT	72 h	15 µM
NC(=O)c1ccc(-c2ccccc2Cl)c2c3c([nH]c12)CC[C@@H](N)C3	cell growth or viability		0.024 µM
CCCON(Cc1ccc(C(=O)NO)cc1)C(=O)Nc1cc(C)cc(C)c1	cell viability	72 h	3.04 ± 0.142 µM
N#Cc1c(N)nc2c(c1-c1cccs1)Cc1cc(O)ccc1-2	cell growth or viability, ATP luminescence		59.5 µM
CN1CCC(N[C@H]2CCc3[nH]c4c(C(N)=O)ccc(-c5ccccc5Cl)c4c3C2)CC1	cell growth or viability		3.1 µM
N#Cc1c(N)nc2c(c1-c1ccccc1)Cc1cc(O)ccc1-2	cell growth or viability, ATP luminescence		24.1 µM
COc1cc(C(=O)N/N=C/c2cccc3ccccc23)cc(OC)c1OC	cell growth or viability, MTT	48 h	0.0843 µM
COC(CC1C(C)=CCC2C1(C)CCC1C(C)(C)C(O)C(O)CC12C)C(N)C(=O)O (stereo not drawn)	cell growth or viability, CCK-8	72 h	> 10 µM
N#Cc1c(N)nc2c(c1-c1ccc(F)cc1)Cc1cc(O)ccc1-2	cell growth or viability, ATP luminescence		13.4 µM
CCOc1cncc(-c2ccc(NC(=O)C3(c4ccnc(NS(=O)(=O)C5CC5)n4)CCOCC3)nc2)n1	cell growth or viability, ATP luminescence	72 h	0.023 µM
CO[C@@H](C[C@H]1C(C)=CC[C@@H]2[C@]3(C)C[C@H](O[C@@H]4O[C@@H](C)[C@H](OC(=O)c5cccc(O)c5)[C@@H](O[C@@H]5O[C@H](CO)[C@@H](O)[C@H](O)[C@H]5NC(C)=O)[C@H]4O)[C@@H](O)C(C)(C)[C@H]3CC[C@]21C)[C@H](N)C(=O)O	cell growth or viability, CCK-8	72 h	0.203 µM

A few entries again:
Structure (SMILES)	assay	setting	IC50
COc1cc(C(=O)N/N=C/c2cccc3ccccc23)cc(OC)c1OC	cell growth or viability, MTT	48 h	0.0843 µM
COC(CC1C(C)=CCC2C1(C)CCC1C(C)(C)C(O)C(O)CC12C)C(N)C(=O)O (stereo not drawn)	cell growth or viability, CCK-8	72 h	> 10 µM
